Published values collected from several papers.
Numbered parts are unrelated; each lists some results of a single study. Positions count from the first letter of the parent shown.

Block 1 — target: CCNA2, cyclin fold, Cln2 fusion (human); method: yeast growth competition, sequencing; medium: yeast; notes: strong parent motif; baseline: not given; direction: higher = stronger binding
Starting sequence: ORC1 docking peptide (human); PRARKRLELGNLG; partner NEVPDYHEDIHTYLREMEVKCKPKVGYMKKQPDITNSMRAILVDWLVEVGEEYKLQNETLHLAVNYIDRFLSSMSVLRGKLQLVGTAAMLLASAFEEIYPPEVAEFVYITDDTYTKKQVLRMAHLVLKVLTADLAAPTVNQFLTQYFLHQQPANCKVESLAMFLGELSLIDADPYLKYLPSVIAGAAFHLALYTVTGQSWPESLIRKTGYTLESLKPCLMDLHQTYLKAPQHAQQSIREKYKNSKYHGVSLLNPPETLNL
Variant	normalised enrichment score
R4G	1.31
L7E	0.843
L9E	0.651
K5L	0.849
A3T	1.27
R4W	1.56
N11T	5.37
A3C	6.37
R6C	3.05
N11A	4.77
R2E	3.35
K5N	1.52
P1C	6.43
R4D	0.699
R6S	1.78
L7W	1.05
L9S	0.915
G10N	5.12
R6G	1.72
G13E	5.62
R2P	4.81
R4K	3.85
A3D	0.152
A3Q	2.3
N11L	4.65

Block 2 — method: RNA Bind-n-Seq; form: RNA; medium: in vitro; concentration: not given; baseline: input RNA pool; direction: higher = stronger binding
Target: RING finger protein unkempt homolog, zinc fingers 1-6, GST-SBP tag (UNK, Homo sapiens, UniProt Q9C0B0, residues 30-357)
Chain of UniProt Q9C0B0 (30-357, looked up): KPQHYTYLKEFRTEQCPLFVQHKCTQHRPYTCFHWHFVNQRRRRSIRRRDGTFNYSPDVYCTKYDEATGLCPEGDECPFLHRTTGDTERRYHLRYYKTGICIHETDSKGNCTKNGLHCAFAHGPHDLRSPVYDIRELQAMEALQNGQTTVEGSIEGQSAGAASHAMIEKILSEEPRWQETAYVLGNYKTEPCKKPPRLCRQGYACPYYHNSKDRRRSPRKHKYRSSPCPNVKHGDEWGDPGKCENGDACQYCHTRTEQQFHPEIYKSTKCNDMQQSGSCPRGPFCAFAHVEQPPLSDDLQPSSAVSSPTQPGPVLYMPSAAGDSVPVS
Notes: RNA with constant flanks, human and mouse sites, ends assumed
Constant ends, left off below: GGGAGUUCUACAGUCCGACGAUC … CAACAGAGGAUUGAGCAUCA
Strand	bound/input enrichment [ratio]
CUCCUUUCCCAUGCCCGUGGGCAUAAGGAGAAAGGGGUGGUAAUGCAAUGCUCCCACUUAAUUUUAAAGCCAGUCCCAGCAGAUCAAAUGAUAGUUUCUCCGUCAAGCAAUACUUCCACU	0.532
UUUUUUAACAAAAAAAGGGACCAUUGCAACUUUUGUUAAUUUAAUUUUUUUUUUUUUUUUUUUUUUUUUUUUUUUUGGAGGGAGAAAACUGAUGUCUUCUAUGCAUCCGAUUCUUAACAA	7.32
CCGAAAGUAGUGAAUGAAAUAAACAUUGAAGAUUUGUGUCUUACUAAAGCAGCUUAUUGUAGGUGUUGGCGUUCUAAAACGUUUCCUGCCUGCGAUGGUUCACAUAAUAAACACAAUGAA	4.7
GACAUUUCAAAAACAGGAGAAUAUUUACGAGUUAAACUACCACUAAAUCCAACUGCUAGGGAAUUUCAACCAGAUGUAAAGUCUGAAGCACUGUCUGAGGAUGUGAAGUCCAUACCAGGA	0.15
UAUGACAGAAUGGAUUAUGAAGAUGACAGAUUAAGAGAUGGAGAAAGGUGUAGGGAUGAUUCUUUUUUUGGUGAGACCUCGCAUAACUAUCAUAAAUUUGACAGUGAGUAUGAGAGAAUG	0.697
CUGCCUCCGUGCAGAGCGGCCGGGAGGGCUUUGCAGCGGCCGCCGACGCGGCGGGAGGAGGGGGCUGAGGCGGCUUCGGAGUUGGCCGGAGAAGGUGGGCAUUUCUCGCUUUUCCUCCCC	0.0918
UAUGUAAGAAAACAAGUUGAGAAGAUUAAAAAUUCCAUGGAUGGGAAGAAUGUGGACACAGUUCUGAUGGAACUUGGAGUACGUUUUCAUCGGCUUAUUUAUGAACAUCUUCAACAAUAU	0.212
CACACACUCUUCUGCGGGACCCUCAUCUUGCAGGCCCGGGCCUAUGUGGGACCGCACGUCCUGGCAGUGGUGACCCGCACAGGGUUCUGCACGGCAAAAGGGGGCCUGGUGAGCUCCAUC	0.124
GAAGUACGACCUGUAGUGGUGCCAAAACUCCCUUCUAUGGAUGCAAGAACAGACAGAUCAUCAGACAGAAAAGGAAGCAGUUACAAGGGGAGAGAAGUGUUGGAUGGAAGACAGGUUGUU	0.395
GCUGUUUCCUUCUGAGCUGUGGAGAUCACACCAUCCUGUCGCCCUGCAAAUAAUUGUGGAUCAUUUACCUUGAGGCUGCAGAGUGGGUUCCAGGACUCUUACUUCACUGUGGAGGGACUU	0.132
UCUUGUUCCUCCAGCCUAAGUGCUCUGAGCCUGGAUGAGCCAUUUAUACAGAAAGAUGUAGAAUUAAGAAUCAUGCCUCCAGUUCAGGAAAACGACAAUGGGAAUGAAACUGAAUCAGAA	0.129

Block 3 — method: RNA Bind-n-Seq; form: RNA; medium: in vitro; concentration: 1 µM; notes: whole 134-nt RNA, ends assumed; added: 150 mM KCl; baseline: input library; direction: higher = stronger binding
Target: Ras GTPase-activating protein-binding protein 1, RRM domain (G3BP1, Homo sapiens, UniProt Q13283)
Chain of UniProt Q13283 (whole entry, looked up): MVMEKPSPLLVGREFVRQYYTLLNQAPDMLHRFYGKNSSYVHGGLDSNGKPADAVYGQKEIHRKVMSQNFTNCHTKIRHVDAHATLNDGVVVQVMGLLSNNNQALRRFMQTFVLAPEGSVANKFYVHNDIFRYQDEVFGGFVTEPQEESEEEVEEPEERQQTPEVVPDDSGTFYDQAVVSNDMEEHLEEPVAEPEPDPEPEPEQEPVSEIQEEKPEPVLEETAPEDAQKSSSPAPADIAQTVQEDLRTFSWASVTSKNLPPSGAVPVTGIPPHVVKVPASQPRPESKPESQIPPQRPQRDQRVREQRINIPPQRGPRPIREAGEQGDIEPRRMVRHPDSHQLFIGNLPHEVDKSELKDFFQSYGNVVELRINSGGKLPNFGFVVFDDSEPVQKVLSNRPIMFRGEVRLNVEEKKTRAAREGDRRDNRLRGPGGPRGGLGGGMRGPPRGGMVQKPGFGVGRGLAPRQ
Constant ends, left off below: GGGAGUUCUACAGUCCGACGAUC … UGGAAUUCUCGGGUGUCAAGG
Strand	log2 enrichment
CACAGACAACACGCACCCACGCAGACACAGAGGGAAGGGGUUGGGAUGGGGACAGGGUGCACAGCAGGGCGGGGUAGGACCCCAGCCCCU	-0.0317
ACCAUGCAGGUGGGCAUCUUCGGGAAGUGGGGCAAGGGGGGGAUAGGGAGGGGGGUAACACUUUGGGAACAGGUGGUCCCAGGUCGUUUC	-0.43
UUUCAGGGCGCCCUGCGUCCGGCAGAGGAGGCGAGCAUCCCGCUCAGGUGAUGAGGAACCCCUCGCGCACCCAGCGCAGAAGGCUGCUGC	-0.648
CCUCAAGUCCUGUGCUACACAUCGUAUGUACCGAAUCGGAAGGAAGGAAGGGGAAAGUAUUAUGUUACGCCGUUCGGAUCUGCACUUCCA	-0.252
AGUCCUGUGCUACACAUCGUAUGUACCGAAUCGGGAAAAAGGAAAAAGGGAAAAAGGAAAGUAUUAUGUUACGCCGUUCGGAUCUGCACU	-0.11
AAGUCCUGUGCUACACAUCGUAUGUACCGAAUCGGUUUUGGGUUUUGGGGUUUUGGAAAGUAUUAUGUUACGCCGUUCGGAUCUGCACUU	-0.212
CUCAAGUCCUGUGCUACACAUCGUAUGUACCGAAUCGGGCGGGGCGGGGCGGGAAAGUAUUAUGUUACGCCGUUCGGAUCUGCACUUCCA	0.957
GCAGGAAGUAAAAACAAAUGGAAAUGCUUCGGAGAGUGGCAGGGGUGGGGGUUGCUAAGGAAAGGGUGGGAUGGGAGUGGGUAAAGAGUU	0.822
CCUGUGCUACACAUCGUAUGUACCGAAUCGGGGAAAAAAAGGGGUUUGGGGAAAAAGGGGAAAGUAUUAUGUUACGCCGUUCGGAUCUGC	0.729
UGGAACAGCAGCUGCCACUCAGGCGUAAUUCCCACCUAGAGGAGAGUUUCACAUCCACCGAAGAAUCUUCCGAAGAAAAUGUCAACUUUU	0.0171
UAACUUUAGAGGAGGAUCUGAUGGAUAUGGCAUUGGACGUGGAUUUGGGGAUGGCUAUAAUGGGUAUGGAGGAGGACCUGGAGGUGGCAA	-0.694
UUAUCACCAGGACUGCCAUGUUCCCAGGGCUCCAGCCCCUGGAGAGGGAGAGGGCACAUCCUGGGUAUGCCGCCAGUGUGUCUUUGCGAU	-0.348
UCAAGUCCUGUGCUACACAUCGUAUGUACCGAAUCGGGGUGGGGAGGGGUGGGGAAAGUAUUAUGUUACGCCGUUCGGAUCUGCACUUCC	0.491
CAAGUCCUGUGCUACACAUCGUAUGUACCGAAUCGGGGAAGGGGAAGGGGAAGGGAAAGUAUUAUGUUACGCCGUUCGGAUCUGCACUUC	1.01

Block 4 — method: RNA Bind-n-Seq; form: RNA; medium: in vitro; concentration: 365 nM; baseline: no-protein control; direction: higher = stronger binding
Target: RNA binding protein fox-1 homolog 2, RRM domain, GST-SBP tag (RBFOX2, Homo sapiens, UniProt O43251-10, residues 100-194)
Notes: natural RNA segment, single round, ends assumed
Constant ends, left off below: GGGAGUUCUACAGUCCGACGAUC … UGGAAUUCUCGGGUGCCAA
Residues (chain): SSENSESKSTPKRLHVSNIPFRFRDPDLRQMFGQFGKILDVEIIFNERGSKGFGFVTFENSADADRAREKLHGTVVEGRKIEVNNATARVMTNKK
Strand	RBNS enrichment (R)
GCAGCCCCGCCCCCGUGGGUCUCUGACUCUGUCGCUUUUCUCUAAGUAAAGAUUUCACGUCCACCGGGGCUUCCAUCUCUCCUGCGCGUCCUCUGCCGGGCUGGCCUUUC	0.367
AGGAGUUCAAGGCCAGCCUUAGCUAUAUAGUGAGUUUGAAGCCAGCCUGGGCUACAUGUAACCUUCCCAAAAAAAUCCAAAACAACAACAAAAAUAUUUAAGUGUGCCUA	0.606
UCUCCAGUGCAUUAAAUAACCUUCAUCAAGAAAUAGGUUAUAGGUAAAAUCUCUGAAGGAUCAUCUAUGUAUUCAAGUAAUUAUUUUUUAGAUAAUAACUGUCUUCUGGA	0.35
UGAAGACUCUGCAUCUCACUGAAAAUAUCAGAAUAUUCAUGUAUUUUCCUUGUCCUUGAGUUUUCCUAUGAAAGAAAUAUAUUUUGUUAGAUUUGAAUUAUCGAGGCAUU	0.681
AACUGCUCCUUGGUGGCCAUUAGAUCGAGUCAGUUUUGAUCUGCAUCACUUAGUUAUUGGGAAUUUCUUUGUUGGAAACAGGAAAAUUUUUUUAGAUUAUUUGGUGUACG	0.321
UGGGAGGAAGGAGAAUUUCCAUUAGGCAAGCUGUAUGCAGUGGAAUUUUCCUUUUAGGAGACACACAAUUAAGACUCUCUGGUUCUGUCCUUGCUUUGGAGACUUUAAGA	0.732
UUGCUGUAGGCCACAUGCUGAAGGCAAGCCAACCCGAGGACGAGGACAGUCCCUGGAUCCUACACAGCUAAUCCAAGCCAAUAAAGGGCUCUCACAAGUGGUUGUUCCUC	0.182
UACUGAAACAUUGUGCCAAGAAACUCUGUGGGAUUUGUGUCCCUUAAACCAGACUCACUUUUCUGAAAAAUCUCCAUUGUUGAGGAGAGGCUGCUCAAUCGACACCCCGA	0.441
UUAUUCUUUUUCUUUACAGCUGAAAUUGCUUUAAAUGAUGGUUAAAAUUACAAAUUAAAUUGUUAAUUUUUAUCAAUGUGAUUGUAAUUAAAAAUAUUUUGAUUUAAAUA	0.606
GCUUUCUUUAUCAACCUGCUCACUCACAAAUGUGUGCCCUCAGCCAGAGAGUAAGAAAGCCCAAAUCUGUUACAGCUUCUAAAAAAAUAGAUUUCUAAUUUGUCCUACUC	0.364
UGAUCCCAGCACUUGGGAGGCAGAGGCAGGCGGAUUUUUGAGUUUGAGACCAGCCUGAUCCAUAGAGUGAGUUCCAGGACAGCCAGGUUUAUACAGAGAAACCCUGUCUU	0.73
AAGGGUGUGAAGAAGGAAUAGUUUUAUAAUCUCGGAAGAUGAUACCAAGAGCAGAGGCAACAAAUAGAGGCCUGGCCUCCAGGUGCCGGAUCCAGACACCUGACCUAGAA	0.554

Block 5 — target: CREBL2, bZIP domain (human); method: DHFR protein complementation; medium: yeast; baseline: wild-type JUN-FOS pair; direction: higher = stronger binding
Notes: single substitutions, most at no-binding floor
Starting sequence: JUN, bZIP domain (human); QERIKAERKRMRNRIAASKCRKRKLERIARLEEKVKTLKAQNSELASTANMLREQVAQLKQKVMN; partner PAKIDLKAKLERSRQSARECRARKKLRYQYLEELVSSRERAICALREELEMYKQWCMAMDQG
Variant	binding fitness
E54K	-1.57 natural log
S43N	-1.46 natural log
R53S	-1.5 natural log
A46E	-1.48 natural log
I28A	-1.28 natural log
R30E	-1.4 natural log
Q41E	-1.61 natural log
V35G	-1.49 natural log
K39H	-1.57 natural log
E32K	-1.52 natural log
K39W	-1.52 natural log
L52R	-1.49 natural log
S43H	-1.52 natural log
A40R	-1.49 natural log
L45E	-1.44 natural log
E54R	-1.3 natural log
K36E	-1.25 natural log
L38K	-1.42 natural log
E33N	-1.59 natural log

Further values, each from its own experiment
Substance	target	test	test system	conditions	scale	endpoint	value
PhoQ, residues 284 288 289 292 302 303 SASVAL	PhoP, residues 12 14 15 18 19 SPWRL (Escherichia coli, UniProt P23836)	Sort-seq, item: YFP reporter	E. coli	PhoQ-PhoP variant library, added: 10 µM Mg2+	baseline: high Mg2+ state, higher = stronger signaling	fold induction	1.59

Repeated from above (block 1):
Variant	normalised enrichment score
R4D	0.699
R6S	1.78
L7W	1.05
L9S	0.915
